Experimental data from different studies.
Protocols differ between the studies behind these lines. Positions count from the first letter of the parent shown.
P1: ZYX; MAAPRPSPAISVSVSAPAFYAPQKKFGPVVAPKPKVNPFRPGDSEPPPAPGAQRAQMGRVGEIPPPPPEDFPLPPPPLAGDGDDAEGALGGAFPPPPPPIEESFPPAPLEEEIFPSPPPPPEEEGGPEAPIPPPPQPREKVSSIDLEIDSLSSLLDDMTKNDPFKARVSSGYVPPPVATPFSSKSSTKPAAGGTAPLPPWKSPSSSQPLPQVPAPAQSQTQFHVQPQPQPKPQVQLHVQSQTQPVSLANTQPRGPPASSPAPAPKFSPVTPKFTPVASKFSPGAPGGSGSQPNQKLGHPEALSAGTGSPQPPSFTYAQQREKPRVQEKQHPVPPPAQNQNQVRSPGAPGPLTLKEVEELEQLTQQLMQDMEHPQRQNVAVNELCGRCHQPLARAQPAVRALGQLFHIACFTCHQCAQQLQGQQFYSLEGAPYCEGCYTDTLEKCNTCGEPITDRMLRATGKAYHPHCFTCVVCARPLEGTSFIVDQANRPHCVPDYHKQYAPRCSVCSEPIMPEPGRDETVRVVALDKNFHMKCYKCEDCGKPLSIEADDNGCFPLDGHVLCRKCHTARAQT
P2: ADGRB3 CUB domain (Homo sapiens); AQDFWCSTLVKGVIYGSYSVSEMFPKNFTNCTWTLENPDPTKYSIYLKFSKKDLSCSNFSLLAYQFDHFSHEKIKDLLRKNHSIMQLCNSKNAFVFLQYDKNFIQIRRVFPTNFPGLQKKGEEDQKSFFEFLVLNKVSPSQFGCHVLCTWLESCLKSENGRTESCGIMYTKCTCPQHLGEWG
P3: KSS1 (Saccharomyces cerevisiae); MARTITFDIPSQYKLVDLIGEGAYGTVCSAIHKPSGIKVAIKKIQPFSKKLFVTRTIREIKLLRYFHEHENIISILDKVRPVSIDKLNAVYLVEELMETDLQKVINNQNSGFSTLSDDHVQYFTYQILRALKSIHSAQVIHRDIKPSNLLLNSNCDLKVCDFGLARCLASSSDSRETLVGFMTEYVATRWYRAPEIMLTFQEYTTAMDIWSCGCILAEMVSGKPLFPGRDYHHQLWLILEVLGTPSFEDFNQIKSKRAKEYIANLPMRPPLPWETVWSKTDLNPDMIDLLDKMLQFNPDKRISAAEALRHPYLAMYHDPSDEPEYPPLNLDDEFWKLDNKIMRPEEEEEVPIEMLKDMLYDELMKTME; partner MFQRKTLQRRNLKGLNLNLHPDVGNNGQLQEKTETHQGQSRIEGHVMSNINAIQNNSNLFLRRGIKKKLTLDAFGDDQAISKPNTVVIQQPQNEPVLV
B1: DISC1 coiled coil 765-835; chain GPWKEDSHIVSAEVGEKCEAIGVKLLHLEDQLLGAMYSHDEALFQSLQGELQTVKETLQAMILQLQPTKEA
P4: SCAP (Homo sapiens); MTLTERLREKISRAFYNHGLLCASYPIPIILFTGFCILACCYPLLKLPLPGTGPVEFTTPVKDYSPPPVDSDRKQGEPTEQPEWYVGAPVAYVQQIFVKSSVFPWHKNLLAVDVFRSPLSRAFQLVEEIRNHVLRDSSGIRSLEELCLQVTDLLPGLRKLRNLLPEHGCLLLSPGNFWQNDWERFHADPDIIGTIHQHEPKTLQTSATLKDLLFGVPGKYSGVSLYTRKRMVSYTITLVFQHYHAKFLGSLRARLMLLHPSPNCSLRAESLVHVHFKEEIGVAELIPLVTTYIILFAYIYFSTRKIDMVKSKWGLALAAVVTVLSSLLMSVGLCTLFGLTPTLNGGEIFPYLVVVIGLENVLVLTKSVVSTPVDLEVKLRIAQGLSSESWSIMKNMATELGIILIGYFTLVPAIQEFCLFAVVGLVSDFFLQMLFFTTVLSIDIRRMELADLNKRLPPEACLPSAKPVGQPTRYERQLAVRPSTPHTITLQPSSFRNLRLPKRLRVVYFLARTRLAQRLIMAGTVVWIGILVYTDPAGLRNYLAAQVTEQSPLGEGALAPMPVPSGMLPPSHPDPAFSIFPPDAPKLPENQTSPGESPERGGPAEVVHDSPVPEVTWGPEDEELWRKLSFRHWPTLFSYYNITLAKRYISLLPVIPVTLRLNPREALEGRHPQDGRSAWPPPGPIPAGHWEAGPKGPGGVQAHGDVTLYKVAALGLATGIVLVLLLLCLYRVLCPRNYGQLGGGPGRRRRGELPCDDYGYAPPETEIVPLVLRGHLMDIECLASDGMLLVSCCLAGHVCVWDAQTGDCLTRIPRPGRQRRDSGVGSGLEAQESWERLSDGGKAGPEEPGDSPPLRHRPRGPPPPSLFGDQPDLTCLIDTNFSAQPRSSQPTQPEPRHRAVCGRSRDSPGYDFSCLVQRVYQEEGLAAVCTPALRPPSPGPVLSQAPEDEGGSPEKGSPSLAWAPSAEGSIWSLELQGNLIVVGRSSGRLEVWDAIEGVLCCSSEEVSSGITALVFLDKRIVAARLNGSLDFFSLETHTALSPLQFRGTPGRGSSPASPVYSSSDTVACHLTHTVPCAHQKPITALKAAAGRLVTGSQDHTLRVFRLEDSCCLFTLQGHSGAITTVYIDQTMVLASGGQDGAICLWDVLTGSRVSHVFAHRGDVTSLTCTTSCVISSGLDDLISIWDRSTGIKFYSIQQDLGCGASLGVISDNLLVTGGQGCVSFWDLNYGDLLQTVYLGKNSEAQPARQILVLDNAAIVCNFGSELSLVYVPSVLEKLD
P5: ITGA2 cytoplasmic domain peptide (Homo sapiens); WKLGFFKRKYEKM; partner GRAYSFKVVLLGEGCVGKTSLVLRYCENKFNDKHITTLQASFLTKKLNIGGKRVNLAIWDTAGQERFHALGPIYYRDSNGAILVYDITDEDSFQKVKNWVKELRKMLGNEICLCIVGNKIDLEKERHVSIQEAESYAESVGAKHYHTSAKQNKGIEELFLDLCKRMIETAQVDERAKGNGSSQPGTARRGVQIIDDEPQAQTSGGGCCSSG
P6: SPAST MIT domain, 112-195 (Homo sapiens); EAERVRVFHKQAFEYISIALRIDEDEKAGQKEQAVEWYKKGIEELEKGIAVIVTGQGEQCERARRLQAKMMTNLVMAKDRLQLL; partner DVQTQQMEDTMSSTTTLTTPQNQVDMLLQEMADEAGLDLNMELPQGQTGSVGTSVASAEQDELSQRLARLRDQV
Sequence of UniProt P35639 (whole entry, looked up): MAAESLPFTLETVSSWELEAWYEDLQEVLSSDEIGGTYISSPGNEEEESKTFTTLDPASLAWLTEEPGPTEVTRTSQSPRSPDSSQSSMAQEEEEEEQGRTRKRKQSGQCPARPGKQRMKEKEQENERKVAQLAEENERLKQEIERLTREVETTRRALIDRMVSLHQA

`P1 S142A S169C` has a relative binding of 2.19 (YWHAG; GST pull-down; lysate; baseline: unchanged protein, higher = more binding).
For `P2 K42A`, the Kd was 9.5 µM (C1ql1 globular C1q domain (Mus musculus); ITC; with: Ca2+ 2 mM).
`P3 D318A D321A` has a Kd of greater than 50 µM (STE7 residues 1-98 (Saccharomyces cerevisiae); GST pull-down).
`B1 (DISC1 coiled coil 765-835)` gave a Kd of 10 µM (DDIT3 (UniProt P35639); ITC; read off a plot).
The signal of `P4 L343A` is reported as 0.28 (INSIG1 (Homo sapiens); co-IP; read off a plot, with: 25-HC; higher = more binding).
`GAAGATAACGATATTTAAAA (dsDNA (Trichomonas vaginalis); 20-mer duplex)` has a Kd of 5.68 µM (MYB21 40-156 K51A (Trichomonas vaginalis, UniProt Q58HP3); ITC; double-stranded DNA, one strand shown).
`P5 K7A R8A` has a relative binding of 7 (RAB21 residues 15-225 (Homo sapiens); fluorescence polarisation; baseline: unchanged protein, higher = more binding).
The Kd of `P6 F13A` is reported as greater than 282 µM (CHMP1B residues 126-199 (Homo sapiens); SPR).
`P5 L3A G4A` gave a relative binding of 3 (RAB21 residues 15-225 (Homo sapiens); fluorescence polarisation; baseline: unchanged protein, higher = more binding).
With `GAGCTGTATCGTCTTGACTG (dsDNA (Trichomonas vaginalis); 20-mer duplex)` the Kd was 2.08 µM (MYB21 40-156 K49A (Trichomonas vaginalis, UniProt Q58HP3); ITC; double-stranded DNA, one strand shown).

For quick reference, copied from above:
With `GAGCTGTATCGTCTTGACTG (dsDNA (Trichomonas vaginalis); 20-mer duplex)` the Kd was 2.08 µM (MYB21 40-156 K49A (Trichomonas vaginalis, UniProt Q58HP3); ITC; double-stranded DNA, one strand shown).
